Assay results from different studies.
A part holds a random share of what one study measured. ± gives the spread as reported.

The chains behind the UniProt entries cited, without tags or fusion partners.
UniProt P15056, whole entry G466A: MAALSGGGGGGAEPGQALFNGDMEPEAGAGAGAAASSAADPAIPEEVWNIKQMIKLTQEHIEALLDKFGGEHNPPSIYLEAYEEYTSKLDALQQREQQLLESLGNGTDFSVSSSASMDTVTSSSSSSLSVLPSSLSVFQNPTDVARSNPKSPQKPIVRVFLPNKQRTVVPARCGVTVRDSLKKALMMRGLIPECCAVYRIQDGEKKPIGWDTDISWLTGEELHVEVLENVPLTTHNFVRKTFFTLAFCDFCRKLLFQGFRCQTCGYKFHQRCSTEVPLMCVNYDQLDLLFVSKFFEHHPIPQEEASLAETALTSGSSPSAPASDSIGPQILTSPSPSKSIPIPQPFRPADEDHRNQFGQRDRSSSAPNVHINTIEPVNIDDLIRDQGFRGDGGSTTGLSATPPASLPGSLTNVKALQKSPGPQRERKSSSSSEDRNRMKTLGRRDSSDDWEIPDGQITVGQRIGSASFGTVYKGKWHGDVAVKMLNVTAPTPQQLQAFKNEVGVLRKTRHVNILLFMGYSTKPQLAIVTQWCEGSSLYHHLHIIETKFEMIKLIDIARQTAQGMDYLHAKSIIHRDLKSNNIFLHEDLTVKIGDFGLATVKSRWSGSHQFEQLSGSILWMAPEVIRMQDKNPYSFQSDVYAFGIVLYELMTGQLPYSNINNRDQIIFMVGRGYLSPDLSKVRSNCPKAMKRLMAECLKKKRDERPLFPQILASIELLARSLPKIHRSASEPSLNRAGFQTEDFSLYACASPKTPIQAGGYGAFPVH
UniProt P16591, whole entry: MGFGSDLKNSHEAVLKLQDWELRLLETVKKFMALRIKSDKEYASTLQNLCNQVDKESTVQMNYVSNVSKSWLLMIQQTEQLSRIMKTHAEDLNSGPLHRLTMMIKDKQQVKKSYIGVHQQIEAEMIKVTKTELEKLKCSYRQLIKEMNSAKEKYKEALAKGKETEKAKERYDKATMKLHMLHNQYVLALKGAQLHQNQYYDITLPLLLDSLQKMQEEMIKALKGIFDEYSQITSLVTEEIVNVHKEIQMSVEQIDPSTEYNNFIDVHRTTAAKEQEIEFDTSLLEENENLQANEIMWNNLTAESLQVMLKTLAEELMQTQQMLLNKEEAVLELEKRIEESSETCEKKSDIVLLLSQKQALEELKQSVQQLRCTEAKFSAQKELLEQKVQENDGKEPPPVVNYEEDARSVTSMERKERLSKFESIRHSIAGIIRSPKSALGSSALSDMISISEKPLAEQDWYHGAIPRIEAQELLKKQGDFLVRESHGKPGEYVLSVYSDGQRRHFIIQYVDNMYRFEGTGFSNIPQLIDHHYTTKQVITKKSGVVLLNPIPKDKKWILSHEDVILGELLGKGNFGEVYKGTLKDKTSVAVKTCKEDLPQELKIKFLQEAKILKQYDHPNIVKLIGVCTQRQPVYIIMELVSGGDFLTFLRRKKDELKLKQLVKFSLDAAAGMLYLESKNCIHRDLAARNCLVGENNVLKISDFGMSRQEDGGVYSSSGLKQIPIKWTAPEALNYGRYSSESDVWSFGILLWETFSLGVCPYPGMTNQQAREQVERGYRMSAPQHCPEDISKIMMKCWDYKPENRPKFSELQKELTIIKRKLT
UniProt Q8NCB2, whole entry: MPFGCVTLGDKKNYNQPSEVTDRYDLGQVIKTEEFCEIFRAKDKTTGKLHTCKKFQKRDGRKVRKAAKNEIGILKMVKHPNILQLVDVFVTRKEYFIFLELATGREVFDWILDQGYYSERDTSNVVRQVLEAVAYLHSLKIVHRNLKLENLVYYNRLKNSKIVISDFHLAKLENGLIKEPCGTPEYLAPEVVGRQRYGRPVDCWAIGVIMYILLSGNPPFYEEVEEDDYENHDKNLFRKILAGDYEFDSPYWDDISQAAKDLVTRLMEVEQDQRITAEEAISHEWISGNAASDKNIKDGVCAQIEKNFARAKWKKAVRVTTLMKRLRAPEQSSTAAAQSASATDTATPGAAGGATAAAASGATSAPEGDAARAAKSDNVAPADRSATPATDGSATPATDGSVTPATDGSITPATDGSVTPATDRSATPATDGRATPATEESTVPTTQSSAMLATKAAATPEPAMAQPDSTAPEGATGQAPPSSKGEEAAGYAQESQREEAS
UniProt P53671, whole entry: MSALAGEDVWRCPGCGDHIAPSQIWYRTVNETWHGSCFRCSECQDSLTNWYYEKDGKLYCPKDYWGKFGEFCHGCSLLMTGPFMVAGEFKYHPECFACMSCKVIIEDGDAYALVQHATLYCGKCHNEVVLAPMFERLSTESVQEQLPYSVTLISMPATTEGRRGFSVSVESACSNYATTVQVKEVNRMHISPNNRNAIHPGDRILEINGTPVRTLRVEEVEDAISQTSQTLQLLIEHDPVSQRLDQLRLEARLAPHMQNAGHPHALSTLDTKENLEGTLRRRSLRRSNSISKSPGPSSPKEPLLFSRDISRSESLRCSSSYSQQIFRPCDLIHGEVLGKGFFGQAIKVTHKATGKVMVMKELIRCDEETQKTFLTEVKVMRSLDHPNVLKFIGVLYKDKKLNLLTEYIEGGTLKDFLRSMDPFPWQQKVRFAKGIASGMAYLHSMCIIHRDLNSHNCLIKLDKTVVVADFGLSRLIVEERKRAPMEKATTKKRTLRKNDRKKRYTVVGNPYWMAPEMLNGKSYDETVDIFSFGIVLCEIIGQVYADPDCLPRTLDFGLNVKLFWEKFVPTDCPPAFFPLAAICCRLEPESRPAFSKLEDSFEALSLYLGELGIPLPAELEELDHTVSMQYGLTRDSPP
UniProt P04629, whole entry, looked up: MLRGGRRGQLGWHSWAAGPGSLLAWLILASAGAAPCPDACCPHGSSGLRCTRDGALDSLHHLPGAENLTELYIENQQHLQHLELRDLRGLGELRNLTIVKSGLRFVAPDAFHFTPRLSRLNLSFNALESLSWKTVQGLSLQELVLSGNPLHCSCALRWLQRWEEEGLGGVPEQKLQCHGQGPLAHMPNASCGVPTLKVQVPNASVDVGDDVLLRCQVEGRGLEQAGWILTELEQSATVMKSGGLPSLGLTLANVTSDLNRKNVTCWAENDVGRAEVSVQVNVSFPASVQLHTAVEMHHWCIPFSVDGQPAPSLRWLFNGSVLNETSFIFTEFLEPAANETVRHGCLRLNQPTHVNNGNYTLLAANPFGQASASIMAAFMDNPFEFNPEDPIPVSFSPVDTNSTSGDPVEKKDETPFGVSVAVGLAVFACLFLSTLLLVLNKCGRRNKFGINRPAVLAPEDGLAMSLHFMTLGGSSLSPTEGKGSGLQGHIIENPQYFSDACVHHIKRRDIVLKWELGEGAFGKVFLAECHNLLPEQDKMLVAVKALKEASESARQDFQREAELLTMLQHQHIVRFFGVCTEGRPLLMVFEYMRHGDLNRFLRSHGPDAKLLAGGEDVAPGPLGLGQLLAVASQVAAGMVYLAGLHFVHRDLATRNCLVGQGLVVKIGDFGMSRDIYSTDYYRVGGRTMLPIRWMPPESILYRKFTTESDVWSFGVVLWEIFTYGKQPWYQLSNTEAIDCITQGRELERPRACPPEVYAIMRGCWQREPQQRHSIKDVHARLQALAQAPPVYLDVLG
UniProt P04150, whole entry: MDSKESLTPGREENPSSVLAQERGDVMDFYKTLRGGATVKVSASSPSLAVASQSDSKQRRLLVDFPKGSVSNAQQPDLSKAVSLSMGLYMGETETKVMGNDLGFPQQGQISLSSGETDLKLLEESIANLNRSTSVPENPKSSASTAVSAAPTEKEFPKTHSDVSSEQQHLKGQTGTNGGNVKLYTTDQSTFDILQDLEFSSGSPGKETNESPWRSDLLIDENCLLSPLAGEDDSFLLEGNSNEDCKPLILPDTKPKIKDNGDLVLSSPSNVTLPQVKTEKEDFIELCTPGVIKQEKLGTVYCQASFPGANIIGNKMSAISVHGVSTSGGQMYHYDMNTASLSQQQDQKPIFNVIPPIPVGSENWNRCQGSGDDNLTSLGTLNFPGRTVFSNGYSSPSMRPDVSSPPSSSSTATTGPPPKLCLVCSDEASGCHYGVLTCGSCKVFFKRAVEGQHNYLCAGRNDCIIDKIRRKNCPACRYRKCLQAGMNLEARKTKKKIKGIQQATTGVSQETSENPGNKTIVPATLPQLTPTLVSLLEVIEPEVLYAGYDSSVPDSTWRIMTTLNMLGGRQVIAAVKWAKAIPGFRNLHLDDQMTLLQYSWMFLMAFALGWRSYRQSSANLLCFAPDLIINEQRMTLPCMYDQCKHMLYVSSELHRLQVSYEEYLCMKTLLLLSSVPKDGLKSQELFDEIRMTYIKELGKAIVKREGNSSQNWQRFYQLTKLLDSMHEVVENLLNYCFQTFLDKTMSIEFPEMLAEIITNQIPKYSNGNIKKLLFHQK
UniProt P09769, whole entry: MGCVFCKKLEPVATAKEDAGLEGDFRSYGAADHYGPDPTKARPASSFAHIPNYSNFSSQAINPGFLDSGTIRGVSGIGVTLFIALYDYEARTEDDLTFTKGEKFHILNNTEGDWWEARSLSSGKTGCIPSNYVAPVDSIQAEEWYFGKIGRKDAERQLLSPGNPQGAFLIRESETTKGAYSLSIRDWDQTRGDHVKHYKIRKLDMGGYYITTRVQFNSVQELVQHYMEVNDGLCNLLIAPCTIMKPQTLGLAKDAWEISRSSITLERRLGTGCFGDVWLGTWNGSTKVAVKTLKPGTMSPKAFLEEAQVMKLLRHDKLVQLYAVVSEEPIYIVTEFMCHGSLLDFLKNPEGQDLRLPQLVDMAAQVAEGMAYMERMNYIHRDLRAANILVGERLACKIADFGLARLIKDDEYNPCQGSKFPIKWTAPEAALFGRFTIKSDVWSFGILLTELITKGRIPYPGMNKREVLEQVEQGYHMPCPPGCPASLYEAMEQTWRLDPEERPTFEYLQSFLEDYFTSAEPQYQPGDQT

Study 1
Compound: CCN1CCN(Cc2ccc(NC(=O)c3ccc(C)c(/C=C/c4cnc5[nH]ccc5c4OC)c3)cc2C(F)(F)F)CC1
Mode: inhibitor
Concentration: 5 µM
Serine/threonine-protein kinase B-raf (BRAF, Homo sapiens, UniProt P15056, G466A); cell-based kinome screen; baseline: vehicle control — “log2 fold change”: -0.324.
The “log2 fold change” was -0.668 (Tyrosine-protein kinase Fer (FER, Homo sapiens, UniProt P16591); cell-based kinome screen; human cells; baseline: untreated).
It gave 0.091 for “log2 fold change” (CaM kinase-like vesicle-associated protein (CAMKV, Homo sapiens, UniProt Q8NCB2); kinase-CDC37 interaction; human cells; baseline: vehicle).
The “log2 fold change” was 0.206 (LIM domain kinase 2 (LIMK2, Homo sapiens, UniProt P53671); cell-based kinome screen; human cells; baseline: vehicle).
It gave 0.022 for “log2 fold change” (High affinity nerve growth factor receptor, with CDC37 (NTRK1, Homo sapiens, UniProt P04629); baseline: no inhibitor).

Mixed results
NR3C1: Glucocorticoid receptor (NR3C1, Homo sapiens, UniProt P04150)
With `CC(C)CCC[C@@H](C)[C@@H]1CC[C@@H]2[C@H]3CC[C@H]4C[C@@H](N)CC[C@@]4(C)[C@@H]3CC[C@]21C` the EC50 was over 9 µM (NR3C1; nuclear translocation, agonist, enzyme fragment complementation).
`COc1cc(CC(=O)NCC(NC(=O)C(CCCNC(=O)c2cccc(I)c2)NC(=O)C(Cc2ccc(C(F)(F)P(=O)(O)O)cc2)NC(=O)c2ccc(C)c(Br)c2)C(N)=O)ccc1O` (stereo not shown): IR phosphorylation “increased” (primary mouse hepatocytes; Western blot; 1 h, dose-dependent, with: insulin 5 nM, 5 min; baseline: DMSO).
With `CC#C/C(=N\OC[C@H]1COCCN1)c1ccc2ncnc(Nc3ccc(OCc4cccc(F)c4)c(Cl)c3)c2c1` the IC50 was 0.0344 ± 0.0032 µM (NCI-N87; cell growth; with: 0.08% α1-acid glycoprotein).
`CCN1CCN(Cc2ccc(NC(=O)c3ccc(C)c(Oc4ncnc5cc(OC)c(OC)cc45)c3)cc2C(F)(F)F)CC1`: “complete inhibition concentration” over 10 nM (Tyrosine-protein kinase Fgr (FGR, Homo sapiens, UniProt P09769); autophosphorylation, immunoblot, refers to: activation loop phosphotyrosine; TF-1 transduced with FGR; 6 h).
`C[C@]12CC[C@H]3c4ccc(OCC(=O)O)cc4CC[C@@H]3[C@H]1CCC2=O` has an EC50 of over 9 µM (NR3C1; nuclear translocation, agonist, enzyme fragment complementation).

A few entries again (study 1):
The “log2 fold change” was -0.668 (Tyrosine-protein kinase Fer (FER, Homo sapiens, UniProt P16591); cell-based kinome screen; human cells; baseline: untreated).
